Assay results pooled from the literature.
Protocols differ between the studies behind these lines. Numbers after ± are the reported error.
CDK2 with cyclin A1: Cyclin-dependent kinase 2, with cyclin A1 (CDK2, Homo sapiens, UniProt P24941)
CDK2: Cyclin-dependent kinase 2 (CDK2, Homo sapiens, UniProt P24941)
CDK2 with cyclin A2: Cyclin-dependent kinase 2, with cyclin A2 (CDK2, Homo sapiens, UniProt P24941)

| Compound | target | assay | system | conditions | how to read | measurement | result |
| --- | --- | --- | --- | --- | --- | --- | --- |
| COc1ccc(F)cc1C(=O)NCc1ccc(-c2nn([C@@H](C)C(F)(F)F)c(N)c2C(N)=O)cc1 | CDK2 with cyclin A1 | kinase activity, inhibitor, HotSpot radiometric |  | 100 nM, with: ATP 10 µM |  | remaining activity | 79.9 ± 2.1% |
| CC[C@@H]1[C@H](F)C(=O)N[C@@H]1COc1nccc2cc(C(N)=O)c(OC)cc12 | CDK2 | ATP-site probe binding, ActivX profiling | THP-1 cell lysate | 0.2 mM, Lys1 site |  | inhibition | 12.3% |
| C=CC(=O)N1CCC(C(=O)NCC(=O)N2CCN(c3nc(-c4cnc(N)nc4C(F)F)nc(N4CCOCC4)n3)CC2)CC1 | CDK2 | KINOMEscan |  | 1 µM |  | remaining binding | 100% |
| CNC(=O)c1cc(Oc2ccc(NC(=O)Nc3ccc(Cl)c(C(F)(F)F)c3)cc2)ccn1 | CDK2 with cyclin A2 | kinase activity, inhibitor, ADP-Glo kinase |  | 0.2 nM |  | remaining activity | 87.7% |
| C=CC(=O)N1CCC([C@@H]2CCNc3c(C(N)=O)c(-c4ccc(Oc5ccccc5)cc4)nn32)CC1 | CDK2 with cyclin A1 | kinase activity, inhibitor, HotSpot radiometric |  | 100 nM, with: ATP 10 µM |  | remaining activity | 96.5 ± 2.6% |
| C1=C/COCc2cc(ccc2OCCN2CCCC2)Nc2nccc(n2)-c2cccc(c2)COC/1 | CDK2 |  |  | concentration not given |  | percent of control | 100% |
| CC(=O)N=S(=O)(O)c1ccc(N/C=C2\C(=O)Nc3ccc4ncsc4c32)cc1 | Cyclin-dependent kinase 2, with cyclin A (CDK2, Homo sapiens, UniProt P24941) | isothermal titration calorimetry |  | concentration not given, 298 K, with: cyclin A |  | binding enthalpy | -7.23 kcal/mol |
| CC(=O)Nc1c(N)nc(SCC(=O)NN)[nH]c1=O | CDK2 with cyclin A2 | kinase activity |  | 0.2 nM |  | remaining activity | 96% |
| CC(C)=CCc1c(O)c(CC=C(C)C)c2oc3c(O)cccc3c(=O)c2c1O | Cyclin-dependent kinase 2, with cyclin E1 (CDK2, Homo sapiens, UniProt P24941) | kinase activity, inhibitor |  | concentration not given |  | inhibition | inactive |
| C=CC(=O)N1CCC(COCC(=O)N2CCN(c3nc(-c4cnc(N)nc4C(F)F)nc(N4CCOC[C@@H]4C)n3)CC2)CC1 | CDK2 | KINOMEscan |  | 1 µM | baseline: DMSO control | remaining binding | 100% |
| CC(=O)Nc1c(N)nc(SCC(=O)N/N=C/c2ccc([N+](=O)[O-])cc2)[nH]c1=O | CDK2 with cyclin A2 | kinase activity |  | 10 nM |  | remaining activity | 85% |
